Assay results of several laboratories.
Compare with care: the assays were run in different laboratories. ± gives the spread as reported. ≈ marks a conversion by molar mass, not a printed value.

CCOC(=O)c1c(N)csc1-c1cn(-c2ccccc2)nc1-c1ccc(C)cc1
MIC (Klebsiella pneumoniae; broth microdilution; clinical urinary isolate; compound gamma-irradiated 10 kGy): 0.123 ± 0.3 µg/mL (≈ 0.305 µM)

COc1ccc2c(c1)c(CC(=O)O)c(C)n2C(=O)c1ccc(Cl)cc1
cytokine level (multiplex bead immunoassay, refers to: KC; CD-1 mice, serum; ip, 20 mg/kg, three-injection regimen, with: LPS 3 mg/kg): 978 ± 479 pg/mL

Nc1ncnc2c1ncn2CCOCP(=O)(O)O
EC50 (herpes simplex virus 2; cytopathic effect; HEL, clinical isolate PB): 5.2 ± 3.2 µg/mL (≈ 19 µM)

CC(=NNC(=S)NN=C(C(=NO)c1ccccc1)c1ccccc1)c1ccccc1C
relative protein level (MCF7; Western blot, refers to: iNOS; IC50 concentration, 24 h; baseline: untreated): 0.63 ± 0.06

C[C@@H](O)[C@H]1C(=O)N2C(C(=O)O)=C(S[C@@H]3CN[C@H](C(=O)N(C)C)C3)[C@H](C)[C@H]12
FIC index (Pseudomonas aeruginosa; checkerboard; ATCC 27853; with: magainin II): 0.187

CS/C(S)=N/CCCC[S+](C)[O-] (racemic)
mRNA fold change (RT-PCR, refers to: Arnt; rat, liver; oral gavage, 200 mg/kg, 96 h, dosed for four days; baseline: vehicle): 0.586

Nc1ccn(C[C@@H](CO)OCP(=O)(O)O)c(=O)n1
EC50 (herpes simplex virus 2; cytopathic effect; primary human keratinocytes, G): 4.4 ± 2.8 µg/mL (≈ 15.8 µM)

CC(C)C[C@H](NC(=O)[C@H](CO)NC(=O)[C@H](CCCNC(=N)N)NC(=O)[C@H](CC(=O)O)NC(=O)[C@H](CCC(=O)O)NC(=O)[C@H](C)NC(=O)[C@@H]1CCCN1C(=O)[C@H](C)NC(=O)[C@H](CCC(=O)O)NC(=O)[C@@H]1CCCN1C(=O)[C@@H]1CCCN1)C(N)=O
dopamine level (HPLC-EC; F344 rat, normal, substantia nigra; intranasal, 100 µg, 5 days/week, 3 weeks): 481 ± 83 ng/g

For quick reference, copied from above:
C[C@@H](O)[C@H]1C(=O)N2C(C(=O)O)=C(S[C@@H]3CN[C@H](C(=O)N(C)C)C3)[C@H](C)[C@H]12
FIC index (Pseudomonas aeruginosa; checkerboard; ATCC 27853; with: magainin II): 0.187
